Published values collected from several papers.
± marks the error that the study gave.

Compound | target or system | assay | system | conditions | scale | measurement | result
CC1=C[C@@H](O/C=C2/C(=O)O[C@H]3c4ccccc4C[C@@H]23)OC1=O | Phelipanche ramosa | seed germination | – | 1 µM | relative to: (±)-compound | Emax | 100%
CCn1nc(C)c(CN2CCCC(C(=O)c3cccc(OC(C)C)c3)C2)c1C (stereo not shown) | Trypanosoma cruzi | reporter mRNA translation, inhibitor, item: capped polyadenylated Renilla luciferase mRNA | cell-free extract | concentration not given | relative to: control RNA | relative translation | 112%
C=C(NC(=O)c1csc(-c2nc3c(cc2O)-c2nc(cs2)C(=O)NC(C(C)O)C(=O)NC(=C(C)OC)c2nc(cs2)C(=O)NC2c4nc(cs4)C(=O)NC(COC(=O)c4c5c6c(cccc6n4O)COC(=O)C(OC4CC(C)(O)C(N(C)C)C(C)O4)C2OC5)c2nc-3cs2)n1)C(N)=O (stereo not shown) | Streptococcus pneumoniae | – | -25, immunocompromised mice, lung infection, lung | 16 mg/kg/day three times daily, 24 h post-dose | – | bacterial load | 5.48 log CFU/g
CC(=O)[O-].O.O.O.O.[Co+2].[O-]c1ccc(Br)cc1C=NCCN1CCOCC1 | – | hydroxyl radical scavenging | – | 40 µM | – | inhibition | 7.82%
CCN(CC)CC(=O)Nc1cccc(-n2cc(-c3ccc4ccc(-c5cn(-c6cccc(NC(=O)CN(CC)CC)c6)nn5)cc4c3)nn2)c1 | RCC4 | PCR angiogenesis array, item: ERBB2 | – | 5 x IC50, 6 h, normoxia | relative to: untreated | fold regulation | 1.18
Br.CCCCCCCCCn1c2c(c(=N)c3c1CCC3)CCCC2 | Trypanosoma cruzi | reporter mRNA translation, inhibitor, item: capped polyadenylated Renilla luciferase mRNA | cell-free extract | concentration not given | relative to: control RNA | relative translation | 32.5%
Cc1ccccc1C(c1c[nH]c(=O)[nH]c1=O)c1c[nH]c(=O)[nH]c1=O | HIV-1 subtype C | p24 antigen production, p24 ELISA | – | 62.5 µg/mL | – | inhibition | 35%
COC1CN([C@H]2CC[C@H]([C@@]3(C)Oc4c(Cl)cc(C(=O)NCc5c(SC)cc(C)[nH]c5=O)c(C)c4O3)CC2)C1 | – | RNA-seq, item: MCF2L | human, whole blood | dose not given, 24 h | relative to: pretreatment baseline | log2 fold change | 1.78
Cc1ncsc1-c1ccc(C(C)NC(=O)C2CC(O)CN2C(=O)C(NC(=O)CCCCCCCCCCN2CCCC(Nc3ncc(Cl)c(Nc4ccccc4S(=O)(=O)C(C)C)n3)C2)C(C)(C)C)cc1 (stereo not shown) | 22Rv1 | RNA-seq, item: TRAF3IP2 mRNA | – | concentration not given | relative to: DMSO | log2 fold change | -1.4
CC(C)c1ccc(N(C)c2ccc3c(c2)OCC[C@H]3CNc2cnccc2C(=O)O)cc1 | HEL | cell viability, CellTiter-Glo | – | 7 days | – | IC50 | 11.7 nM
CN1CCCNC(=O)c2cccc(c2)C(=O)NCCCN(C)CCCNc2cccc3c2C(=O)c2cccc(c2C3=O)NCCC1 | SAS | RNA-Seq, item: C10orf143 mRNA | – | 1 µM, 6 h | relative to: untreated cells | log2 fold change | 2.29
C=CC(=O)Nc1cccc(Cn2ncc3cnc(Nc4cnn(CCOC)c4)nc32)c1 | WEE1 human | binding, KINOMEscan | – | 100 nM | lower = stronger binding | percent of control | 100%
CNS(=O)(=O)Nc1nccc(Cc2c(C)c3ccc(Oc4ncccc4F)cc3oc2=O)c1F | KP-2 | cell viability, CellTiter-Glo | – | 7 days | – | IC50 | 20.9 nM
COc1cc(O)ccc1CCC(c1ccc(O)cc1)c1cc2c(c(C)c1O)OC(c1ccc(O)cc1)CC2 (mixture of isomers) | – | item: 5,15-diHETE | human whole blood | 30 µM, together with: Escherichia coli | – | amount | 42 ± 9 pg/mL blood
Nc1ncc(-c2cc(-c3cnn(CC(F)(F)F)c3)ncc2F)nc1C(=O)NC1CNCC(F)C1 (stereo not shown) | ERK4 | KINOMEscan | – | 1 µM | relative to: DMSO control | remaining binding | 96%
Cn1ncc2cc(-c3cncc(Cl)c3N3CCC4(CCNC4=O)CC3)ccc21 | LS174T | gene expression, microarray, item: RUNX1 mRNA | – | concentration not given, 4 h | relative to: untreated cells | log2 fold change | 1.22

A few entries again:
Compound | target or system | assay | system | conditions | scale | measurement | result
Nc1ncc(-c2cc(-c3cnn(CC(F)(F)F)c3)ncc2F)nc1C(=O)NC1CNCC(F)C1 (stereo not shown) | ERK4 | KINOMEscan | – | 1 µM | relative to: DMSO control | remaining binding | 96%
Cn1ncc2cc(-c3cncc(Cl)c3N3CCC4(CCNC4=O)CC3)ccc21 | LS174T | gene expression, microarray, item: RUNX1 mRNA | – | concentration not given, 4 h | relative to: untreated cells | log2 fold change | 1.22
